Published values pooled from the literature.
Each line is one published result; not all experiments were run side by side. Several values in a cell are separate wells, animals, samples, runs or records. ± gives the spread as reported.

Structure (SMILES)	cell line	test	setting	IC50
CCOc1ccc(Br)cc1/C=N/NC(=O)CCl	AMO1	cell growth or viability	–	0.0789 µM
CC(C)C12OC1C1OC13C1(C)CCC4=C(COC4=O)C1CC1OC13C2OC(=O)CCCOC1OC(CO)C(O)C(O)C1O (centres unmarked)	human cancer cell lines	cell viability, XTT	–	3.94 µM
Cc1sc2c(c1C)C(c1ccc(-c3cccc(NC(=O)c4cnn5cccnc45)c3)cc1)=N[C@@H](CC(N)=O)c1nnc(C)n1-2	THP-1	cell growth or viability, ATP luminescence	72 h	0.0068 µM
Cc1sc2c(c1C)C(c1ccc(NC(=O)c3cc([N+](=O)[O-])ccc3F)cc1)=N[C@@H](CC(=O)OC(C)(C)C)c1nnc(C)n1-2	SET-2	cell growth or viability, ATP luminescence	72 h	1.2e-05 µM
Cc1cc(Oc2nc(N3CC[C@@H](c4ccncc4)C3)ncc2F)[nH]n1	MIA PaCa-2	cell proliferation	–	37.2 µM
CC[C@H](C)[C@@H]1NC(=O)[C@@H]2CCCN2C(=O)[C@H](C)NC(=O)[C@H](CC(C)C)NC(=O)[C@@H]2CCCN2C(=O)[C@H](C)NC(=O)[C@@H]2CSSC[C@H](NC(=O)[C@H](C)NC(=O)[C@H](C)NC(=O)[C@H](Cc3ccc(O)cc3)NC(=O)[C@@H]3CCCN3C(=O)CNC(=O)[C@H](Cc3c[nH]c4ccccc34)NC1=O)C(=O)N[C@@H](CC(C)C)C(=O)N[C@@H](CO)C(=O)N[C@@H](C)C(=O)N[C@H]1CSSC[C@H](NC(=O)[C@H](C(C)C)NC(=O)[C@@H]3CCCN3C(=O)CNC(=O)CNC(=O)CNC(=O)[C@H](C)NC(=O)[C@H](C)NC(=O)[C@H](CC(C)C)NC1=O)C(=O)N[C@@H](CC(C)C)C(=O)N[C@@H](C)C(=O)N[C@@H](C(C)C)C(=O)N2	LN-18	–	–	> 128 µg/mL
CC(C)NCCCn1c(Sc2cc3c(cc2I)OCO3)nc2c(N)ncnc21	MDA-MB-468	cell death, annexin V, cleaved PARP	–	0.1 µM
CC(=O)N[C@H](C(=O)N[C@@H](CCCNC(=N)N)C(=O)N[C@@H](CCCCN)C(=O)N[C@@H](CCCNC(=N)N)C(=O)N[C@]1(C)CCCC=CCCC[C@@](C)(C(=O)N[C@@H](CC(C)C)C(=O)N[C@@H](CC(C)C)C(=O)N[C@@H](CCC(N)=O)C(=O)N[C@@H](CCC(=O)O)C(=O)N[C@@H](CCCNC(=N)N)C(=O)N[C@@H](CCC(=O)O)C(=O)N[C@@H](CC(C)C)C(=O)N[C@H](C(=O)N[C@@H](CCC(=O)O)C(N)=O)C(C)C)NC(=O)[C@H](CCCNC(=N)N)NC(=O)[C@H](CC(C)C)NC1=O)C(C)C	H1975 (EGFR L858R/T790M)	cell viability, ATP luminescence	18 h	68.1 ± 6.03 µM
Cc1ccccc1/C=C/C(=O)N[C@@H](CO)C(=O)N[C@H](C(=O)N[C@H](Cc1ccccc1)C(=O)N[C@@H]1C(=O)N2[C@@H](CC(=O)O)C(=O)Nc3ccccc3[C@@]2(O)[C@@H]1O)[C@@H](C)O	HCT-116	–	–	> 20 µM
CC(=O)N[C@H](C(=O)N[C@@H](CCCNC(=N)N)C(=O)N[C@@H](CCCCN)C(=O)N[C@@H](CCCNC(=N)N)C(=O)N[C@@]1(C)CCCC=CCCC[C@@](C)(C(=O)N[C@@H](CC(C)C)C(=O)N[C@@H](CCC(N)=O)C(=O)N[C@@H](CCC(=O)O)C(=O)N[C@@H](CCCNC(=N)N)C(=O)N[C@@H](CCC(=O)O)C(=O)N[C@@H](CC(C)C)C(=O)N[C@H](C(=O)N[C@@H](CCC(=O)O)C(N)=O)C(C)C)NC(=O)[C@H](CCCNC(=N)N)NC(=O)[C@H](CCCNC(=N)N)NC(=O)[C@H](CC(C)C)NC1=O)C(C)C	H2030 (wild-type EGFR)	cell viability, ATP luminescence	18 h	11.3 ± 3.18 µM
CC(=O)N[C@H](C(=O)N[C@@H](CCCNC(=N)N)C(=O)N[C@@H](CCCCN)C(=O)N[C@@H](CCCNC(=N)N)C(=O)N[C@]1(C)CCCCCCC=CCCC[C@@](C)(C(=O)N[C@@H](CCCNC(=N)N)C(=O)N[C@@H](CCC(=O)O)C(=O)N[C@@H](CC(C)C)C(=O)N[C@H](C(=O)N[C@@H](CCC(=O)O)C(N)=O)C(C)C)NC(=O)[C@H](CCC(N)=O)NC(=O)[C@H](C)NC(=O)[C@H](C)NC(=O)[C@H](CCCNC(=N)N)NC(=O)[C@H](CCCNC(=N)N)NC(=O)[C@H](C)NC1=O)C(C)C	H2030, wild-type EGFR	–	–	4.57 µM and 7.94 µM
CC(=O)N[C@H](C(=O)N[C@@H](CCCNC(=N)N)C(=O)N[C@@H](CCCCN)C(=O)N[C@@H](CCCNC(=N)N)C(=O)N[C@H](C(=O)N[C@@H](CC(C)C)C(=O)N[C@@H](CCCNC(=N)N)C(=O)N[C@]1(C)CCCCCCC=CCCC[C@@](C)(C(=O)N[C@H](C(=O)N[C@@H](CCC(=O)O)C(N)=O)C(C)C)NC(=O)[C@H](CCC(=O)O)NC(=O)[C@H](CCCNC(=N)N)NC(=O)[C@H](CCC(=O)O)NC(=O)[C@H](CCC(N)=O)NC(=O)[C@H](CC(C)C)NC(=O)[C@H](CC(C)C)NC1=O)[C@@H](C)O)C(C)C	SK-N-MC (no EGFR or ErbB2-4)	cell viability, ATP luminescence	18 h	> 100 µM
O=C(c1cc(Cc2n[nH]c(=O)c3ccccc23)ccc1F)N1CC(CNC2CC2)C1	human bone marrow progenitor cells	total colony formation	14 days	0.101 µM
Cc1ccc(C(C)C)cc1.Cc1ccc(C(C)C)cc1.Cc1ccc(C(C)C)cc1.Cc1ccc(C(C)C)cc1.O=S(=O)(O)C(F)(F)F.O=S(=O)(O)C(F)(F)F.O=S(=O)(O)C(F)(F)F.O=S(=O)(O)C(F)(F)F.c1ccc2c3c4ccccc4c(c2c1)-c1cn(nn1)-c1cc[n+](cc1)[Ru-]1[O]c2ccc4c5c(ccc(c25)=[O+]1)=[O+][Ru-]([O]4)[n+]1ccc(cc1)-n1cc(nn1)-c1c2ccccc2c(c2ccccc12)-c1cn(nn1)-c1cc[n+](cc1)[Ru-]1[O]c2ccc4c5c(ccc(c25)=[O+]1)=[O+][Ru-]([O]4)[n+]1ccc(cc1)-n1cc-3nn1	AGS	cell growth, MTT	24 h, after 24 h preincubation in medium at 37 °C	5.9 ± 0.16 µM
CCC1=C(C)C2=C(c3ccc(C(=O)NCCNC(=O)c4ccc(P(=NC(=O)c5ccccn5)(c5ccccc5)c5ccccc5)cc4)cc3)c3c(C)c(CC)c(C)n3[B-](F)(F)[N+]2=C1C	MCF-10A	cell growth or viability, MTT	–	> 250 µM
Cc1cc(C)cc(COc2cc3c(cc2OCc2cc(C)cc(C)c2)C2CC(O)(Cc4cn(CCOCCOCCOCCNc5cccc6c5C(=O)N(C5CCC(=O)NC5=O)C6=O)nn4)CC(C)N2CC3)c1 (racemic)	ASPC1	cell growth or viability, MTT	–	0.92 µM
CCC1(c2ccc(NC(=O)CCC(=O)OC3OC4OC5(C)CCC6C(C)CCC(C3C)C46OO5)cc2)CCC(=O)NC1=O (mixture of isomers)	MCF-10A	cell growth or viability, CCK-8	–	19.8 µM
